Measured values pooled from the literature.
Lines come from different studies, so protocols differ. ± gives the spread as reported.

For COc1cc(NC(C)=O)c2c(c1O)-c1c(OC)c(OC)cc3c1C(C2)N(C)CC3 (stereo not drawn), the remaining compound was 95.7 ± 1.4% (rat liver homogenate; 100 µg/mL, 24 h, room temperature, post-preparative storage).
Fc1ccc(Cn2cc(Cn3cc4c5cc(Br)ccc5nc-4c4cc(F)ccc43)nn2)cc1 has a selectivity index of 6 (Giardia duodenalis; reference: Caco-2 CC50 over Giardia IC50).
NS(=O)(=O)c1ccc(NC(=O)NN[C@@H]2O[C@H](CO)[C@@H](O)[C@H](O)[C@@H]2O)cc1 gave a hemolysis of 0% (rabbit erythrocytes; 4 µg/mL, 3 h; reference: complete lysis).
The selectivity index of Fc1ccc2c(c1)c1nc3ccc(Br)cc3c-1cn2Cc1cn(-c2ccccc2)nn1 is reported as 2.5 (Giardia duodenalis; reference: Caco-2 CC50 over Giardia IC50).
CC(=O)N[C@H](C(=O)N[C@H](C(=O)N[C@@H](CCCNC(=N)N)C(=O)N1Cc2ccccc2C[C@H]1C(=O)N[C@@H](Cc1ccccc1)C(N)=O)C1CCCCC1)C(C)C has a cytokine level of < 0.2 pg/mL (human PBMC; Bio-Plex multiplex, item: IL-5; 500 µg/mL, 24 h).
Fc1ccc2c(c1)c1nc3ccc(Br)cc3c-1cn2Cc1cn(CCCc2ccccc2)nn1 gave a selectivity index of 21.6 (Giardia duodenalis; reference: Caco-2 CC50 over Giardia IC50).
c1ccc(CN2CCOCCOCCN(CCCCCCCCCCCCCCN3CCOCCOCCN(CCCCCCCCCCCCCCN4CCOCCOCCN(Cc5ccccc5)CCOCCOCC4)CCOCCOCC3)CCOCCOCC2)cc1 — result for “concentration for membrane permeabilisation”: ≥ 4 µM (Escherichia coli; propidium iodide uptake; tetracycline-resistant).
The therapeutic index of CC(C)CC(NC(=O)C1OC(OC2C(OC3CCC4(C)C(CCC5(C)C4C(=O)C=C4C6CC(C)(C(=O)NC(CC(C)C)C(=O)O)CCC6(C)CCC45C)C3(C)C)OC(C(=O)NC(CC(C)C)C(=O)O)C(O)C2O)C(O)C(O)C1O)C(=O)O (stereo not drawn) is reported as 200 (Epstein-Barr virus; superinfected Raji cells; reference: CC50 over EC50).
The selectivity index of Fc1ccc2c(c1)c1nc3ccc(Br)cc3c-1cn2Cc1cn(Cc2ccc(Br)cc2)nn1 is reported as 5.3 (Giardia duodenalis; reference: Caco-2 CC50 over Giardia IC50).
Cn1c(=O)oc2ccc(-c3ccc(CC(C#N)NC(=O)C4CNCCCO4)c(F)c3)cc21 (stereo not drawn): “ALT increased incidence” 0% (human; oral, 20 mg once daily, treatment-related AE, multiple ascending dose).
O=C(O)CCC(NP(=O)(O)OCCC[C@@H](NC(=O)CC[C@H](NC(=O)CCCCCNC(=O)c1ccc([18F])cc1)C(=O)O)C(=O)O)C(=O)O (stereo partly drawn) has a tracer uptake of 0.401 %ID/g (CWR22Rv1 tumour model; host not given, spleen; 4 h, tumour-bearing).
For [64Cu+2].c1ccc(CNCc2ccc(CN3CCCN4CCNCCCN(CC4)CC3)cc2)nc1, the tissue uptake was 0.36 ± 0.07 %ID/g (CXCR4; NOD/SCID mouse, U87 and U87-stb-CXCR4 xenografts, muscle; iv, 120 min, ex vivo).
COc1ccc(-n2cc(Cn3cc4c5cc(Br)ccc5nc-4c4cc(F)ccc43)nn2)cc1 has a selectivity index of 11 (Giardia duodenalis; reference: Caco-2 CC50 over Giardia IC50).
The tissue uptake of [64Cu+2].c1cnc(CNCc2ccc(CN3CCCN4CCNCCCN(CC4)CC3)cc2)nc1 is reported as 3.82 ± 1.99 %ID/g (CXCR4; NOD/SCID mouse, U87 xenografts, U87-stb-CXCR4 tumour; 90 min, with: AMD3465 25 mg/kg sc).
COC(=O)COc1ccc(NC(=O)C2(c3ccc(Cl)c(Cl)c3)CC2)c(C)c1 has a cytotoxicity of 2% (U-937; LDH release; 50 µM, 4 h; reference: Triton X-100).
